Earlier results that unrelated publications cite.
Protocols differ between the studies behind these lines.
Chain of UniProt Q8IU85 (whole entry, looked up): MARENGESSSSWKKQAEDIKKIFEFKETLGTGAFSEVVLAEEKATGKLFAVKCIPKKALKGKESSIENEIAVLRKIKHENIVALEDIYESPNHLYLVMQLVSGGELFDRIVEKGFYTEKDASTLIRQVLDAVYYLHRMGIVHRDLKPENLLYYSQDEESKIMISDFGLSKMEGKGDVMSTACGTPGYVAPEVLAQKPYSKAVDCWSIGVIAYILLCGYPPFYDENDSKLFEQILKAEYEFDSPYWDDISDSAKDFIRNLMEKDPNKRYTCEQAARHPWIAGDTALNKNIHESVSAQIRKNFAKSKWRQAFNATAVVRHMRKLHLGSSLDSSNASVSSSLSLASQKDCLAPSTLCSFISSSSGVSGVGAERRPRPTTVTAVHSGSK

COc1ccc2c(c1)c(CC(=O)O)c(C)n2C(=O)c1ccc(Cl)cc1 — solubility (water): < 1000 µg/mL
CC(=O)O[C@H]1C(=O)[C@@]2(C)[C@H]([C@H](OC(=O)c3ccccc3)[C@]3(O)C[C@H](OC(=O)[C@H](O)[C@@H](NC(=O)c4ccccc4)c4ccccc4)C(C)=C1C3(C)C)[C@]1(OC(C)=O)CO[C@@H]1C[C@@H]2O — solubility: ~10 µg/mL
NC(=O)N1c2ccccc2C=Cc2ccccc21 — solubility (FaSSIF; literature value): 236 µg/mL
CC(C)C[C@H](NC(=O)[C@H](CCc1ccccc1)NC(=O)CN1CCOCC1)C(=O)N[C@@H](Cc1ccccc1)C(=O)N[C@@H](CC(C)C)C(=O)[C@@]1(C)CO1 — solubility (PBS): ~10 µM
Cc1ccc(Nc2nccc(N(C)c3ccc4c(C)n(C)nc4c3)n2)cc1S(N)(=O)=O.Cl — solubility (FaSSIF; literature value): 1.2 µg/mL
Nc1ccn([C@@H]2O[C@H](CO)[C@@H](O)C2(F)F)c(=O)n1 — solubility (water): 824 µg/mL
O=c1c(-c2ccc(O)cc2)coc2cc(O)cc(O)c12 — solubility (water): < 1000 µg/mL
Cc1cccc(Nc2ccccc2C(=O)O)c1C — solubility (FaSSIF; literature value): 60 µg/mL
C=CC(=O)N1CCC[C@@H](n2nc(-c3ccc(Oc4ccccc4)cc3)c3c(N)ncnc32)C1 — solubility: 2 µg/mL
CO[C@H]1/C=C/O[C@@]2(C)Oc3c(C)c(O)c4c(O)c(c(/C=N/N5CCN(C)CC5)c(O)c4c3C2=O)NC(=O)/C(C)=C\C=C\[C@H](C)[C@H](O)[C@@H](C)[C@@H](O)[C@@H](C)[C@H](OC(C)=O)[C@@H]1C — solubility (pH 7.5): 2800 µg/mL
CC(C)(C)c1cc(C(C)(C)C)c(NC(=O)c2c[nH]c3ccccc3c2=O)cc1O — solubility (water): < 1000 µg/mL
CCC[C@H](NC(=O)[C@@H]1[C@H]2CCC[C@H]2CN1C(=O)[C@@H](NC(=O)[C@@H](NC(=O)c1cnccn1)C1CCCCC1)C(C)(C)C)C(=O)C(=O)NC1CC1 — solubility (FaSSIF; literature value): 120 µg/mL
C=CC(=O)Nc1cc(Nc2nccc(-c3cn(C)c4ccccc34)n2)c(OCC(F)(F)F)nc1N(C)CCN(C)C — solubility (pH 5): 3360 µg/mL
C#Cc1cccc(Nc2ncnc3cc(OCCOC)c(OCCOC)cc23)c1 — solubility (FaSSIF; literature value): 12.4 µg/mL
CN(CCOc1ccc(CC2SC(=O)NC2=O)cc1)c1ccccn1 (centres unmarked) — solubility (water): < 1000 µg/mL
C[C@@H](Oc1ccc(S(C)(=O)=O)cc1C(=O)N1C[C@@H]2C[C@]2(c2cc(C(F)(F)F)on2)C1)C(F)(F)F — solubility (FeSSIF): 42.3 µg/mL
Sc1ncnc2nc[nH]c12 — solubility (water): < 1000 µg/mL
CC1(C)CCC(CN2CCN(c3ccc(C(=O)NS(=O)(=O)c4ccc(NCC5CCOCC5)c([N+](=O)[O-])c4)c(Oc4cnc5[nH]ccc5c4)c3)CC2)=C(c2ccc(Cl)cc2)C1 — solubility (FaSSIF; literature value): 0.0337 µg/mL
CCCN(CCC)S(=O)(=O)c1ccc(C(=O)O)cc1 — solubility (water): < 1000 µg/mL
Nc1cc(C(F)(F)F)c(-c2nc(N3CCOCC3)nc(N3CCOCC3)n2)cn1 — remaining activity (Calcium/calmodulin-dependent protein kinase type 1D (CAMK1D, Homo sapiens, UniProt Q8IU85); enzyme activity; 10 µM; baseline: untreated): 83%
